Published values gathered from unrelated publications.
Each line is one published result; not all experiments were run side by side. ± gives the spread as reported. Converted amounts (≈) assume the structure as drawn.
UniProt Q5S007, sequence (whole entry, unmodified, looked up): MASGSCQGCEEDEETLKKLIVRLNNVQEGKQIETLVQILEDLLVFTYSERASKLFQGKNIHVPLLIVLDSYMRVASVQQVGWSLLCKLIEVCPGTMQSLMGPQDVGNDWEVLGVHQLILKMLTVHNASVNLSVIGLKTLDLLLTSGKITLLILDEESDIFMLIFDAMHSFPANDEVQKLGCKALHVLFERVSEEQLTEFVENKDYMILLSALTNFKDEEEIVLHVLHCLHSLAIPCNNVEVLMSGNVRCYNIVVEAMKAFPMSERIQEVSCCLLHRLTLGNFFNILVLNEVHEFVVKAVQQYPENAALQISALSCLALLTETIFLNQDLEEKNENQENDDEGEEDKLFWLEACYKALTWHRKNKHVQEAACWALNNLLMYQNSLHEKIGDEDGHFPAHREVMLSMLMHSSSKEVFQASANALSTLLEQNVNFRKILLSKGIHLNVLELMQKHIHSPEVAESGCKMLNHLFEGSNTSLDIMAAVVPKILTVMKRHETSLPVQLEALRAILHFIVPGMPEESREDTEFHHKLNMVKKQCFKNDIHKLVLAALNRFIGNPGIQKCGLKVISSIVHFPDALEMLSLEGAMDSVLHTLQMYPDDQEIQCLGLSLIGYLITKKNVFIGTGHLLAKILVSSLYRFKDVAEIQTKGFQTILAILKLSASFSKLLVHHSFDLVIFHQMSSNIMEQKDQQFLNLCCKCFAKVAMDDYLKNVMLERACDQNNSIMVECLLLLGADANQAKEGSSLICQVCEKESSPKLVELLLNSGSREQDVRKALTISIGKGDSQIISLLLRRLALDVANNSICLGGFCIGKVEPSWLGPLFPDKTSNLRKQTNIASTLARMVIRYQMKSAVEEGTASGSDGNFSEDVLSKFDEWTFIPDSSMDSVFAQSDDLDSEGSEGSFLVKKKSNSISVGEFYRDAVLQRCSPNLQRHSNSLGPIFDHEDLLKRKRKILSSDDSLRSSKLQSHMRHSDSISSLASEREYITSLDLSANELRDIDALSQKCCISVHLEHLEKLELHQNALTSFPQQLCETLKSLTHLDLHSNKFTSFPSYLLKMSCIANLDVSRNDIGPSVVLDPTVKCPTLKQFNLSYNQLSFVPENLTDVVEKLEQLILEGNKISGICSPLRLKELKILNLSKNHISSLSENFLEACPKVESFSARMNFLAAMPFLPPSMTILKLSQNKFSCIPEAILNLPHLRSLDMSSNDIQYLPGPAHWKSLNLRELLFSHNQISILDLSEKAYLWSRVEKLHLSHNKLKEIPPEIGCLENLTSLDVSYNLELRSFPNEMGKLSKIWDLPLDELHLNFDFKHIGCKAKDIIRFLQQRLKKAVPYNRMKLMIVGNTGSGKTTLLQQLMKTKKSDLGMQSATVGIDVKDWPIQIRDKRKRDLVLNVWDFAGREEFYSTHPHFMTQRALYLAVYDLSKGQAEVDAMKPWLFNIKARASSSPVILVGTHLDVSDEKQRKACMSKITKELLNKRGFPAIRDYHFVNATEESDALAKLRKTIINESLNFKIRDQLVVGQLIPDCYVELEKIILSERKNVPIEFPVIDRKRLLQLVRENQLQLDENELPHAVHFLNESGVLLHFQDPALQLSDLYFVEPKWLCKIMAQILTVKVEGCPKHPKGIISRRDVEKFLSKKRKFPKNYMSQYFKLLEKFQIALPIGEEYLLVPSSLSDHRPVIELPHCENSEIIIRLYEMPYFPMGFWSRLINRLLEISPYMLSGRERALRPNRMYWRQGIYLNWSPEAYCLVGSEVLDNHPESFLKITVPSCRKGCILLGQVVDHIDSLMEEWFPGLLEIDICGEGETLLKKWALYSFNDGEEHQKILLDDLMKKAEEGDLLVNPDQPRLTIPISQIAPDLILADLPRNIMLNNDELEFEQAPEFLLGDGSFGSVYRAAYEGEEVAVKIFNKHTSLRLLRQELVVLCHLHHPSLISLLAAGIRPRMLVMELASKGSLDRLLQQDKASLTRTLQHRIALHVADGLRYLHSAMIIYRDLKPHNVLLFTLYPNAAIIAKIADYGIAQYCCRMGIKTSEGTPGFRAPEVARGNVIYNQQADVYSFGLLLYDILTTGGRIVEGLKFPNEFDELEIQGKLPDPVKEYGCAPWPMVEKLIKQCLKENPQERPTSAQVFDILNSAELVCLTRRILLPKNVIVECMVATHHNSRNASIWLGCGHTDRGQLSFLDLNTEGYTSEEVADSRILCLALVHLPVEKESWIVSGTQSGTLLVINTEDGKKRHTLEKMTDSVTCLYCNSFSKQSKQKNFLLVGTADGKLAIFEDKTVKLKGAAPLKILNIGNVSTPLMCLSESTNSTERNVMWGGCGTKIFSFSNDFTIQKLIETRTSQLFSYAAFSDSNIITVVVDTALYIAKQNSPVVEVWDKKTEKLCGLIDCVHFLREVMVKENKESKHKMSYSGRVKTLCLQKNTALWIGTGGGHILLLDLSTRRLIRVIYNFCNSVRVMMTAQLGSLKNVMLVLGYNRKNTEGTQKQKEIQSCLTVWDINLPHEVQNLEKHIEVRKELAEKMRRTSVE
UniProt Q15759, sequence (whole entry, looked up): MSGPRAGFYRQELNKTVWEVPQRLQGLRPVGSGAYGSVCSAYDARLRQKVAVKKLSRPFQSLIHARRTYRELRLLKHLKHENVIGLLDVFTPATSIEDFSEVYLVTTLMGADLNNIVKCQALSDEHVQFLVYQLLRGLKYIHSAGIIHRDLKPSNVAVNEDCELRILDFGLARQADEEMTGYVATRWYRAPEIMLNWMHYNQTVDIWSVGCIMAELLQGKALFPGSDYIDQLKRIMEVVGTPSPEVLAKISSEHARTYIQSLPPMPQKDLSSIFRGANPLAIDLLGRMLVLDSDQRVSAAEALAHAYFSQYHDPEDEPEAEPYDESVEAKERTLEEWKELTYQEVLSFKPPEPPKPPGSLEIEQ
UniProt P10768, sequence (whole entry, looked up): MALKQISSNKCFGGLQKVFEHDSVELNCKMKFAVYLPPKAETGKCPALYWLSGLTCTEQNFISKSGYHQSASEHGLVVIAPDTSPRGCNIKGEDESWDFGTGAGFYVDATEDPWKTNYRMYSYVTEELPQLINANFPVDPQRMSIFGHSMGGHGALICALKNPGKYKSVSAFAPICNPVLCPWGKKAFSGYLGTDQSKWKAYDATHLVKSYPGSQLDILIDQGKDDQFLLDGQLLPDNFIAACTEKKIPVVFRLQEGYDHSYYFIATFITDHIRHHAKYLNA
UniProt P28336, sequence (whole entry, looked up): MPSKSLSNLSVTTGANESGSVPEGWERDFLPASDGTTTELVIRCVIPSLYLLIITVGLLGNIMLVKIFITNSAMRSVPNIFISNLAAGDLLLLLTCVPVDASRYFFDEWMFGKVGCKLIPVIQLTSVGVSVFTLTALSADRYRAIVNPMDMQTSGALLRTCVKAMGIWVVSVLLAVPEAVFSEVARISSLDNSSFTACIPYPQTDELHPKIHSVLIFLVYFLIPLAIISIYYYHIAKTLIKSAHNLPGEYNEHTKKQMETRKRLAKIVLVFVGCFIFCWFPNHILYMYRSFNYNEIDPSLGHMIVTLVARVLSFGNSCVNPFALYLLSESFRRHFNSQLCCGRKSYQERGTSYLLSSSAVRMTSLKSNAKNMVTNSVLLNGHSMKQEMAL

CC[N+](CC)(CC)CCOc1ccc(/C=C/c2ccccc2)cc1 — IC50 (Plasmodium falciparum; 7G8): 1.26 µM
C[C@@H](O)[C@@H]1NC(=O)[C@H](Cc2ccccc2)NC(=O)[C@@H](Cc2ccccc2)NC(=O)[C@H](Cc2ccccc2)NC(=O)[C@@H](CCCN)NC(=O)[C@H](CCCCN)NC(=O)[C@@H](CCCCN)NC1=O — IC50 (Naegleria fowleri; trophozoites): > 16 µg/mL
C[C@H]1CN(c2n[nH]c3nc(N[C@H]4CC[C@H](NS(=O)(=O)CCC(F)(F)F)CC4)ncc23)CCO1 — relative binding (Mitogen-activated protein kinase 11 (MAPK11, Homo sapiens, UniProt Q15759); Kinobeads binding, Kinobeads competition pull-down; HEK293, K562 and placenta lysate; 20 µM; relative to: vehicle): 0.21
COc1ccc(N2C(=O)N(c3c(C)cccc3Cl)Cc3cnc(Nc4ccc(C5CCN(C)CC5)cc4OC)nc32)nc1 — inhibition (Leucine-rich repeat serine/threonine-protein kinase 2 (LRRK2, Homo sapiens, UniProt Q5S007, G2019S); kinase activity, inhibitor; 0.5 µM, complex with -G2019S): 50%
Cc1cc(Cl)cc(S(C)(=O)=O)c1NC(=O)c1cc(Br)nn1-c1ncccc1Cl — mortality (Spodoptera litura; leaf-dip; third instar larvae; 12.5 ppm, 96 h): 100%
COc1c(CCC[P+](c2ccccc2)(c2ccccc2)c2ccccc2)cc2c(c1OC)OCO2.[I-] — LC50 (SR; SRB): > -4 log M
CC(C)[C@@H]1NC(=O)[C@@H](CCCCN)NC(=O)[C@H](CCCN)NC(=O)[C@@H](CC(=O)O)NC(=O)[C@H](C)NC(=O)[C@H](Cc2c[nH]c3ccccc23)NC(=O)[C@@H](Cc2c[nH]c3ccccc23)NC1=O — IC90 (Naegleria fowleri; trophozoites): > 16 µg/mL
COc1ccccc1C1CN(CCNC(=O)c2nc(C)c[nH]2)Cc2ccccc2O1 (stereo not drawn) — EC50 (Plasmodium falciparum; parasite growth, SYBR Green; 3D7 wild type; 72 h): 0.873 ± 0.4 µM
CC(C)[C@@H]1NC(=O)[C@@H](CCCNC(=N)N)NC(=O)[C@H]([C@@H](C)O)NC(=O)[C@@H](CCCNC(=N)N)NC(=O)[C@H](Cc2ccccc2)NC(=O)[C@@H](Cc2ccccc2)NC1=O — IC50 (Naegleria fowleri; trophozoites): > 16 µg/mL
CC[C@H](C)[C@H](NC(=O)[C@H](C)NC(=O)[C@H](CCCCN)NC(=O)[C@H](CC(C)C)NC(=O)[C@H](C)NC(=O)[C@@H](NC(=O)[C@H](Cc1c[nH]cn1)NC(=O)[C@H](CC(C)C)NC(=O)[C@@H](NC(=O)[C@@H](NC(=O)[C@H](CCCCN)NC(=O)[C@H](C)NC(=O)[C@H](C)NC(=O)[C@H](CO)NC(=O)[C@H](CCCCN)NC(=O)[C@H](Cc1ccccc1)NC(=O)[C@@H](NC(=O)[C@H](CCCCN)NC(=O)[C@H](CC(C)C)NC(=O)[C@H](Cc1ccccc1)NC(=O)[C@H](CO)NC(=O)[C@H](CCCCN)NC(=O)[C@H](Cc1c[nH]c2ccccc12)NC(=O)[C@H](CCCCN)NC(C)=O)[C@@H](C)O)[C@@H](C)O)C(C)C)[C@@H](C)O)C(=O)N[C@@H](CO)C(=O)N[C@@H](CO)C(N)=O — MIC90 (Citrobacter; 20 strains): 16 µg/mL (≈ 5.45 µM)
O=C(c1ccc(Cl)cc1)N1CCN2C(=O)N(OC(=O)N3CCOc4ccccc43)C(=O)C2C1 (stereo not drawn) — median ratio (S-formylglutathione hydrolase (Homo sapiens, UniProt P10768); enzyme activity, inhibitor, MS-based ABPP; SW-620 in situ; 10 µM, 2 h, 37 °C; relative to: compound over DMSO, lower = stronger inhibition): 1.01
Nc1ncnc2c1ncn2[C@@H]1O[C@@H]2COP(=O)(O)O[C@H]3[C@@H](O)[C@H](n4cnc5c(=O)[nH]cnc54)O[C@@H]3COP(=O)(O)O[C@H]2[C@H]1O — pathway fold enrichment (HFF-1; RNA sequencing, item: Cell-extracellular matrix interactions; downregulated pathway; relative to: Zika virus alone): 19.8
CN1[C@@H]2CC[C@H]1C[C@@H](OC(=O)C(CO)c1ccccc1)C2 (stereo partly drawn) — IC50 (Plasmodium falciparum; GB4): 10 µM
CN[C@H](CC(C)C)C(=O)N[C@H]1C(=O)N[C@@H](CC(N)=O)C(=O)N[C@H]2C(=O)N[C@H]3C(=O)N[C@H](C(=O)N[C@H](C(=O)O)c4cc(O)cc(O)c4-c4cc3ccc4O)[C@H](O)c3ccc(c(Cl)c3)Oc3cc2cc(c3O[C@@H]2O[C@H](CO)[C@@H](O)[C@H](O)[C@H]2O[C@H]2C[C@](C)(N)[C@H](O)[C@H](C)O2)Oc2ccc(cc2Cl)[C@H]1O — MIC90 (Streptococcus pneumoniae): 0.5 µg/mL (≈ 0.345 µM)
CCCC1O[C@@H]2C[C@H]3[C@@H]4CCC5=CC(=O)C=C[C@]5(C)[C@H]4[C@@H](O)C[C@]3(C)[C@]2(C(=O)CO)O1 (stereo partly drawn) — IC50 (Plasmodium falciparum; 3D7): 3.16 µM
CO[C@H]1C[C@@H]2CC[C@@H](C)[C@@](O)(O2)C(=O)C(=O)N2CCCC[C@H]2C(=O)O[C@H]([C@H](C)C[C@@H]2CC[C@@H](OC(=O)NCCOCCOCCOCCOCCOCCOCCOCCOCCC(=O)N3CCc4cc(Cn5nc(-c6ccc7oc(N)nc7c6)c6c(N)ncnc65)ccc4C3)[C@H](OC)C2)C[C@@H](O)[C@H](C)/C=C(\C)[C@@H](O)[C@@H](OC)C(=O)[C@H](C)C[C@H](C)/C=C/C=C/C=C/1C — decreased appetite incidence (patients with advanced solid tumours; intravenous, 10 mg weekly, any grade): 12.5%
CC(C)[C@H]1NC(=O)[C@H](Cc2ccccc2)NC(=O)CNC(=O)[C@@H](Cc2c[nH]c3ccccc23)NC(=O)[C@H](CCCCN)NC(=O)[C@@H](CCCN)NC1=O — IC90 (Naegleria fowleri; trophozoites): > 16 µg/mL
CC[C@H](C)[C@H](NC(=O)[C@H](Cc1ccccc1)NC(=O)[C@H](CCC(=O)O)NC(=O)[C@H](CCCNC(=N)N)NC(=O)[C@H](C)NC(=O)[C@H](C)NC(=O)[C@H](CCC(N)=O)NC(=O)[C@H](CCC(=O)O)NC(=O)[C@H](CCC(=O)O)NC(=O)[C@H](CC(C)C)NC(=O)[C@H](Cc1ccc(O)cc1)NC(=O)[C@H](CO)NC(=O)[C@H](CO)NC(=O)[C@@H](NC(=O)[C@H](CC(=O)O)NC(=O)[C@H](CO)NC(=O)[C@@H](NC(=O)[C@H](Cc1ccccc1)NC(=O)[C@@H](NC(=O)CNC(=O)[C@H](CCC(=O)O)NC(=O)[C@H](C)NC(=O)CCc1c[nH]cn1)[C@@H](C)O)[C@@H](C)O)C(C)C)C(=O)N[C@@H](C)C(=O)N[C@@H](Cc1c[nH]c2ccccc12)C(=O)N[C@@H](CC(C)C)C(=O)N[C@H](C(=O)N[C@@H](CCCNC(=N)N)C(=O)NCC(=O)N[C@@H](CCCNC(=N)N)C(=O)N[C@@H](CCCCNC(=O)COCCOCCNC(=O)COCCOCCNC(=O)CC[C@H](NC(=O)CCCCCCCCCCCCCCCCC(=O)O)C(=O)O)C(=O)NCC(=O)NCC(=O)N[C@@H](CO)C(=O)N[C@@H](CCCCNc1c(NCCCCCN(O)C(=O)CCC(=O)NCCCCCN(O)C(=O)CCC(=O)NCCCCCN(O)C(C)=O)c(=O)c1=O)C(=O)O)C(C)C [zirconium-89 labelled] — tissue uptake (rat, spleen; iv, 3 nmol/kg, 4 h, ex vivo): 0.38 %ID/g
Cc1cc(Nc2ccc(C)c(Cl)c2)n2nc(C(F)(F)F)nc2n1 — EC50 (Plasmodium falciparum; parasite growth, SYBR Green; 3D7 DHODH E182D; 72 h): 0.582 ± 0.11 µM
N=C(N)c1ccc(OCc2cc(Br)cc(COc3ccc(C(=N)N)cc3)c2)cc1 — FICI (Escherichia coli; checkerboard; mcr-1 polymyxin-resistant; unit not given, with: rifampicin; lower = stronger synergy): 0.078
CC[C@H](C)[C@@H]1NC(=O)[C@@H]2CCCN2C(=O)[C@H](CC(C)C)NC(=O)[C@H](CC(C)C)NC(=O)CNC(=O)[C@@H](NC(=O)[C@@H](NC(=O)[C@H](CC(=O)O)NC(=O)CNC(=O)[C@@H](NC(=O)[C@H](C)NC(=O)CNC(=O)[C@H](CCCCN)NC(=O)[C@H](CC(C)C)NC(=O)[C@H](CC(C)C)NC(=O)[C@H](CCCCN)NC(=O)CNC(=O)[C@@H](NC(=O)[C@@H](N)CC(C)C)C(C)C)C(C)C)C(C)C)CSSC[C@@H](C(=O)O)NC1=O — log2 fold change (RNA-seq, item: Nfkb2; mouse, traumatic brain injury model, frontal cortex and hippocampus; dose not given; relative to: TBI alone): -2.03
COc1ccc(-n2ccnc2SCC(=O)Nc2cc(C(F)(F)F)ccc2Cl)c(OC)c1 — EC50 (Plasmodium falciparum; parasite growth, SYBR Green; 3D7 DHODH E182D; 72 h): 0.274 ± 0.073 µM
CCOC(=O)Nc1ccc(NCc2ccc(F)cc2)nc1N — IC50 (Plasmodium falciparum; 7G8): 2.51 µM
CN(C)c1nc(NCc2ccc(OC(F)(F)F)cc2)c(/N=N/c2ccc(Cl)cc2)c(N(C)C)n1 — mortality (Ostrinia furnacalis; leaf dipping; 200 mg/L, 96 h): 100%
COc1cc(Nc2ncc(F)c(Nc3ccc4c(n3)NC(=O)C(C)(C)O4)n2)cc(OC)c1OC — IC50 (Neuromedin-B receptor (NMBR, Homo sapiens, UniProt P28336)): > 10 µM
CCNC(=O)c1ccc(-n2nc(C)cc2-c2ccccc2)cc1 — EC50 (Plasmodium falciparum; parasite growth, SYBR Green; 3D7 wild type; 72 h): 1.98 ± 0.71 µM
CCCN(CCC)[C@H]1CCc2c(F)ccc(O)c2C1 — IC50 (Plasmodium falciparum; 3D7): 1.58 µM
CC(C)[C@@H]1NC(=O)[C@@H](CCCN)NC(=O)[C@H]([C@@H](C)O)NC(=O)[C@@H](CCCN)NC(=O)[C@H](Cc2ccccc2)NC(=O)[C@@H](C)NC(=O)[C@@H](C(C)C)NC(=O)[C@@H](C)NC(=O)[C@H](Cc2c[nH]c3ccccc23)NC(=O)[C@@H](Cc2c[nH]c3ccccc23)NC1=O — IC90 (Acanthamoeba castellanii; trophozoites): > 16 µg/mL
COc1cc(CCC[P+](c2ccccc2)(c2ccccc2)c2ccccc2)c(OC)c2c1OCO2.[I-] — LC50 (SNB-75; SRB): -4.66 log M
C[C@H]1NC(=O)[C@H](Cc2c[nH]c3ccccc23)NC(=O)[C@@H](Cc2ccccc2)NC(=O)[C@@H](CCCN)NC(=O)[C@H]([C@@H](C)O)NC(=O)[C@@H](CCCN)NC(=O)[C@H](Cc2c[nH]c3ccccc23)NC(=O)[C@@H](C)NC1=O — IC90 (Naegleria fowleri; trophozoites): > 16 µg/mL
CCCCN1[C@@H]2CC[C@H]1C[C@@H](OC(c1ccc(F)cc1)c1ccc(F)cc1)C2 — IC50 (Plasmodium falciparum; 3D7): 0.794 µM
Cc1[nH]c(C)c(-c2ccc(OCCn3cnc(Cl)c3Cl)cc2)c(=O)c1Br — EC50 ratio (Plasmodium falciparum; parasite growth, SYBR Green; 72 h; relative to: 3D7-E182D over 3D7): 3.3
COc1cc2c(Oc3ccc4[nH]c(C)cc4c3F)ccnc2cc1OCC1(N)CC1 — grade 1 or 2 Tinnitus (paediatric recurrent refractory sarcoma; 8 mg): 0%

Repeated from above:
Cc1cc(Cl)cc(S(C)(=O)=O)c1NC(=O)c1cc(Br)nn1-c1ncccc1Cl — mortality (Spodoptera litura; leaf-dip; third instar larvae; 12.5 ppm, 96 h): 100%
Cc1[nH]c(C)c(-c2ccc(OCCn3cnc(Cl)c3Cl)cc2)c(=O)c1Br — EC50 ratio (Plasmodium falciparum; parasite growth, SYBR Green; 72 h; relative to: 3D7-E182D over 3D7): 3.3
COc1cc(Nc2ncc(F)c(Nc3ccc4c(n3)NC(=O)C(C)(C)O4)n2)cc(OC)c1OC — IC50 (Neuromedin-B receptor (NMBR, Homo sapiens, UniProt P28336)): > 10 µM
N=C(N)c1ccc(OCc2cc(Br)cc(COc3ccc(C(=N)N)cc3)c2)cc1 — FICI (Escherichia coli; checkerboard; mcr-1 polymyxin-resistant; unit not given, with: rifampicin; lower = stronger synergy): 0.078
CC(C)[C@@H]1NC(=O)[C@@H](CCCN)NC(=O)[C@H]([C@@H](C)O)NC(=O)[C@@H](CCCN)NC(=O)[C@H](Cc2ccccc2)NC(=O)[C@@H](C)NC(=O)[C@@H](C(C)C)NC(=O)[C@@H](C)NC(=O)[C@H](Cc2c[nH]c3ccccc23)NC(=O)[C@@H](Cc2c[nH]c3ccccc23)NC1=O — IC90 (Acanthamoeba castellanii; trophozoites): > 16 µg/mL
